Measurements from different studies.
Each line is one published result; not all experiments were run side by side.
Organism: Enterobacter cloacae

The MIC of `CC[S+]([O-])C1C(CO)OC(OC2C(N)CC(N)C(O)C2OC2OC(CO)C(OC3OC(CN)C(O)C(O)C3N)C2O)C(N)C1O` (mixture of isomers) is reported as 64 µg/mL (AG290).
For `CC(C)C[C@H](NC(=O)[C@H](CC(N)=O)NC(=O)[C@H](CCCNC(=N)N)NC(=O)[C@@H](CC(C)C)NC(=O)[C@H](Cc1ccc2ccccc2c1)NC(=O)[C@H](CC(=O)O)NC(=O)[C@H](CCCCN)NC(=O)[C@@H](CC(C)C)NC(=O)[C@H](CCCNC(=N)N)NC(=O)[C@H](CCC(N)=O)NC(=O)[C@@H](NC(=O)[C@@H](CC(C)C)NC(=O)[C@H](CCCNC(=N)N)NC(=O)[C@H](CCCCN)NC(=O)[C@H](Cc1ccc(C(F)(F)F)cc1)NC(=O)CN)C(C)C)C(=O)N[C@H](C(N)=O)C(C)C`, the MIC was 6.2 µM (broth microdilution; B2366-12).
With `CC[P+](CC)(CC)[Au-][S][C@@H]1O[C@H](COC(C)=O)[C@@H](OC(C)=O)[C@H](OC(C)=O)[C@H]1NC(=O)C(Cl)(Cl)Cl` the MIC was greater than 328 µM (NCTC 13405).
`CN1CCC(NCCC2(Cc3ccc(Cl)cc3)CCCCC2)CC1` gave an MIC of 200 µM (microbial growth; 10 h).
`c1ccc(CN2CCOCCOCCN(CCCCCCCCCCN3CCOCCOCCN(CCCCCCCCCCN4CCOCCOCCN(Cc5ccccc5)CCOCCOCC4)CCOCCOCC3)CCOCCOCC2)cc1` gave an MIC of 26 µM (meropenem-resistant).
`CC(C)S[C@H]1[C@H](O)[C@@H](N)[C@@H](O[C@H]2[C@H](O[C@@H]3O[C@H](CO)[C@@H](O[C@H]4O[C@@H](CN)[C@@H](O)[C@H](O)[C@H]4N)[C@H]3O)[C@@H](O)[C@H](N)C[C@@H]2N)O[C@@H]1CO` gave an MIC of 8 µg/mL (AG290).
`CC(C)C[C@H](NC(=O)[C@H](CC(N)=O)NC(=O)[C@H](CCCNC(=N)N)NC(=O)[C@@H](CC(C)C)NC(=O)[C@H](Cc1ccc(-c2ccccc2)cc1)NC(=O)[C@H](CC(=O)O)NC(=O)[C@H](CCCCN)NC(=O)[C@@H](CC(C)C)NC(=O)[C@H](CCCNC(=N)N)NC(=O)[C@H](CCC(N)=O)NC(=O)[C@@H](NC(=O)[C@@H](CC(C)C)NC(=O)[C@H](CCCNC(=N)N)NC(=O)[C@H](CCCCN)NC(=O)[C@H](Cc1ccc(-c2ccccc2)cc1)NC(=O)CN)C(C)C)C(=O)N[C@H](C(N)=O)C(C)C` has an MIC of 3.1 µM (broth microdilution; B2366-12).
With `COc1c(NC(=O)c2ccc(NC(=O)c3ccc(NC(=O)[C@H](CC#N)NC(=O)c4ccc(NC(=O)/C(C)=C/c5ccc(O)cc5)cc4)cc3)c(OC)c2O)ccc(C(=O)O)c1O` the MIC was greater than 64 µg/mL (microbial growth; DSM30054).
